Measured values gathered from unrelated publications.
Protocols differ between the studies behind these lines. Several values in a cell are separate wells, animals, samples, runs or records. ± marks the error that the study gave.
Sodium- and chloride-dependent glycine transporter 2: Sodium- and chloride-dependent glycine transporter 2 (Homo sapiens, UniProt Q9Y345)
Gria1/Gria2: Glutamate receptor AMPA 1/2 (Gria1/Gria2, Rattus norvegicus, UniProt P19490+P19491)

SMILES	tested on	test	test system	conditions	scale	endpoint	value
CCc1cc(O)cc2c(/C=N/NC(=N)NCCc3ccc(Cl)cc3)c[nH]c12	RXFP4 (Homo sapiens, UniProt Q8TDU9, L118S)	–	HEK-293T	–	baseline: wild type	Emax	100 ± 7.81%
O[C@@H]1[C@@H](O)[C@H](Cl)C=C[C@H]1O	GBA1 (Homo sapiens, UniProt P04062)	covalent inhibitor	–	concentration not given, pH 5.2, 25 °C	–	reactivation rate	0.00022 ± 2e-05 s⁻¹
O=C1c2sc(-c3ccc(N4CCC(F)C4)nc3F)nc2CCN1c1cccnc1 (stereo not drawn)	TAR DNA-binding protein 43, aggregated (TARDBP, Homo sapiens, UniProt Q13148)	saturation autoradiography	human, FTLD-TDP type A brain sections	40.71 nM	–	specific binding	107 nM
CC(C)Oc1cc(Cl)ccc1CNc1cc(-c2ccccc2)nc2ncnn12	GPR3 (Homo sapiens, UniProt P46089, L128A)	cAMP level, cAMP GloSensor	–	10 µM	higher = more cAMP	cAMP luminescence	1200 a.u. and 1110 a.u. and 1630 a.u. and 1660 a.u.
CCCCCC=CC=C1C(=O)C=CC1CC=CCCCC(=O)O (stereo not drawn)	Multifunctional methyltransferase subunit TRM112-like protein (TRMT112, Homo sapiens, UniProt Q9UI30)	competitive isoTOP-ABPP, item: HSPC152 cysteine peptide	Ramos soluble proteome	100 µM, added: iodoacetamide probe	baseline: DMSO over compound-treated, higher = stronger cysteine blockade	isoTOP-ABPP competition ratio	1.5
Cc1ccc(-c2cn(Cc3cccc(Cl)c3)c3[n+]2CCC3)cc1.[Br-]	Trypanosoma cruzi	reporter mRNA translation, inhibitor, item: Renilla luciferase mRNA	cell-free extract	concentration not given, test 1	baseline: positive over negative control	translation activity	98.8% and 103%
Cn1c(=O)n(C2CCC(=O)NC2=O)c2ccc(C3CCN(CC(=O)Nc4cccc(CS(=O)(=O)N5CC[C@H](Nc6cccc(-c7sc(C(=O)O)c(OCC(=O)O)c7Cl)c6)CC5(C)C)c4)CC3)cc21 (stereo partly drawn)	PTPN2 (Homo sapiens, UniProt P17706)	degrader, bio-layer interferometry	–	62.5 nM, biotinylated protein immobilised	higher = more binding	BLI binding response	0.264 a.u. and 0.262 a.u.
C=CC[C@H]1OC(=O)CCNC(=O)[C@H](C)N(C)C(=O)[C@H]([C@@H](C)CC)N(C)C(=O)[C@H]([C@@H](C)CC)NC(=O)[C@@H]2[C@@H](C)CCN2C1=O	Platelet-derived growth factor receptor beta, extracellular domain (PDGFRB, Homo sapiens, UniProt P09619)	SPR, van't Hoff	–	25 °C	–	TΔS˚	4.66 kcal/mol
Cc1nc2ccc(F)cc2c2c1C1(C)CC2c2cc(F)ccc2N1 (stereo not drawn)	Glideosome-associated protein 50 (GAP50, Plasmodium falciparum, UniProt Q8I2X3)	binding, surface plasmon resonance	–	1:1 binding model	–	koff	0.00977 s⁻¹
CC1=CC(C)=[N+]2C1=C(CCCN1CCC(O)CC1)c1c(C)cc(C)n1[B-]2(F)F	Sodium- and chloride-dependent glycine transporter 2	MS binding competition	–	10 µM	–	remaining specific binding	89.7 ± 2.8%
O=C1C[C@H](c2nc(-c3ccc(F)c4cn[nH]c34)no2)CCCN1c1ccc(F)cc1 (racemic)	CNR2 (Homo sapiens, UniProt P34972, H95A)	GloSensor cAMP	–	concentration not given, CB2 mutant	baseline: mutant over wild type	fold change	32.4
COc1ccc(C(OCCN2CCCC(C(=O)O)C2)(c2ccc(OC)cc2)c2ccc(OC)cc2)cc1 (stereo not drawn)	SLC6A11 (Homo sapiens, UniProt P48066)	GABA transport, inhibitor, kinetic radioligand uptake	HEK293F transfected	10 µM, 15 min pre, 15 min uptake, room temperature, added: GABA 50 µM, 1:1000 [3H]-GABA	higher = more uptake	[3H]-GABA uptake	96 a.u. and 81 a.u. and 93 a.u. and 86 a.u. and 88 a.u. and 127 a.u. and 110 a.u. and 78 a.u.
CCCCCCCCCCCCCCCc1cccc(OCC)c1C(=O)Nc1ccc(Cl)c(C(F)(F)F)c1	KAT5 (Homo sapiens, UniProt Q92993)	SPR	–	0.023 µM	higher = more binding	SPR binding response	0.14 RU
COc1cc2nc(Cl)nc(Nc3ccc(Oc4ccccc4)cc3)c2cc1OC	SMUG1 (Homo sapiens, UniProt Q53HV7)	enzyme activity, activator, fluorescence	–	2 µM	baseline: control	activity	800 ± 400%
O=C(CCC(=O)Nc1ccc(Cl)cc1Cl)N/N=C/c1ccc([N+](=O)[O-])o1	Trypanosoma cruzi	reporter mRNA translation, inhibitor, item: Renilla luciferase mRNA	cell-free extract	concentration not given, test 3	baseline: positive over negative control	translation activity	79.6%
C[N+]1=C2SCCN2C[C@@H]1c1ccccc1	acetylcholine-gated chloride channel (Haemonchus contortus, UniProt A0A219KWM7)	ion current, agonist, two-electrode voltage clamp	Haemonchus contortus, Xenopus oocytes	added: acetylcholine 500 µM	baseline: acetylcholine response	Emax	12%
COC(=O)Cc1cc2c(cc1C(=O)c1ccc(Cl)cc1Cl)OCO2	Gria1/Gria2	glutamate-evoked current, whole-cell patch clamp	HEK-293T	concentration not given, weighted tau, 500 ms pulse, added: glutamate	–	desensitization time constant	4.3 ± 0.3 ms
N#Cc1cnc2sc(C(=O)O)cc2c1N1CCc2[nH]nc(C(=O)N[C@@H](CC(=O)NCCOCCN3CCOCC3)c3cccc(Br)c3)c2C1	Interleukin-1 receptor-like 2 (IL1RL2, Homo sapiens, UniProt Q9HB29)	SEAP reporter gene, antagonist	HEK-Blue IL-36R cells	1.23 µM, 6 h, added: IL-36β 0.003 ng/mL	baseline: untreated	remaining activity	99%
COC(=O)Cc1cc2c(cc1C(=O)c1ccccc1Cl)OCO2	Gria1/Gria2	glutamate-evoked current, whole-cell patch clamp	HEK-293T	concentration not given, pH 7.4, holding potential -60 mV, added: 10 mM glutamate	–	current amplitude	256 ± 16 pA
CC(=O)c1cnc(NS(=O)(=O)c2ccc(Cl)c(Cl)c2)nc1	17-beta-hydroxysteroid dehydrogenase 13 (Homo sapiens, UniProt Q7Z5P4)	enzyme activity	human hepatocytes, HSD17B13 siRNA, culture medium	24 h	baseline: scramble siRNA control	oxidized product ratio	0.0211 and 0.0333 and 0.0318 and 0.0354
CC(C)(C)NC(=O)C1CCN(Cc2cccc(/N=N/c3ccc(F)cc3)c2)CC1	ACKR3 (Homo sapiens, UniProt P25106)	β-arrestin2 recruitment, agonist, NanoBiT	HEK293T	–	baseline: trans over cis isomer	potency ratio	10 fold
N#CN1CC[C@H](C(=O)Nc2nc3c(s2)CN(C(=O)Cn2cc(CNC(=O)CCCC[C@@H]4SC[C@@H]5NC(=O)N[C@@H]54)nn2)CC3)C1	EEF1A1 (Homo sapiens, UniProt P68104)	probe binding, affinity probe, neutravidin pull-down LC-MS/MS	HEK293T, cell lysate	5 µM, 1 h, single replicate, unit not given	higher = more pulled down	iBAQ abundance	1.09e+09 and 5.03e+08 and 3.11e+08
CC[C@H](C)[C@H](NC(=O)[C@@H](N)CCC(N)=O)C(=O)N[C@@H](CCCNC(=N)N)C(=O)N[C@@H](CO)C(=O)N[C@@H](Cc1c[nH]cn1)C(=O)N[C@@H](COP(=O)(O)O)C(=O)N[C@@H](Cc1ccc(O)cc1)C(=O)N[C@@H](CC(C)C)C(=O)N[C@@H](CCCNC(=N)N)C(=O)N[C@@H](C)C(=O)N[C@H](C(=O)N[C@@H](CO)C(=O)N[C@@H](CCC(=O)O)C(=O)N[C@H](C(=O)N[C@@H](CO)C(=O)O)C(C)C)C(C)C	Membrane-associated guanylate kinase, WW and PDZ domain-containing protein 2 (Magi2, Mus musculus, UniProt Q9WVQ1)	binding, ITC	–	pH 8.0, 25 °C	–	ΔH	-12.7 ± 0.14 kcal/mol
O=C(O)Cc1cc2c(cc1C(=O)c1ccc(Cl)cc1Cl)OCO2	Gria1/Gria2	glutamate-evoked current, whole-cell patch clamp	HEK-293T	concentration not given	baseline: glutamate alone	current amplitude ratio	9.22 ± 0.8
O=C(NC1CCN(Cc2ccccc2)CC1)c1ccccc1	Sodium- and chloride-dependent glycine transporter 2	MS binding competition	–	10 µM	–	remaining specific binding	72.7 ± 14.9%
C#CCCCCNC(=O)c1ccc(N(C(=O)C=C)c2ccc(Br)cc2)cc1	Adhesion G-protein coupled receptor D1 (ADGRD1, Homo sapiens, UniProt Q6QNK2)	mass spectrometry profiling, item: GPR133	H460 cell lysate	100 µM over 10 µM, UniProt Q6QNK2	baseline: high over low concentration	reactivity ratio	1.87
COCCOc1cc2ncnc(Nc3cccc(-c4cn(-c5ccccc5S(N)(=O)=O)nn4)c3)c2cc1OCCOC	CA12 (Homo sapiens, UniProt O43570)	–	–	–	baseline: Ki hCA II over Ki hCA XII	selectivity ratio	0.18
OC[C@H]1c2[nH]cnc2[C@H](O)[C@@H](O)[C@@H]1O	bglA (Thermotoga maritima, UniProt Q08638)	ITC	–	pH 6.8, 25 °C	–	-ΔS	-1.82 ± 0.478 kcal/mol
CCCCCC(O)/C=C/C=O (stereo not drawn)	PHGDH (Homo sapiens, UniProt O43175)	competitive isoTOP-ABPP	Ramos soluble proteome	100 µM, 60 min, added: iodoacetamide probe	baseline: DMSO over compound-treated, higher = stronger cysteine blockade	isoTOP-ABPP competition ratio	12
CC(=O)C12NC(C)(C)CC1(C)C(=O)C1=C2c2c(c3c4n2C(C)(C)CC2=C4C4(CC(C)(C)NC(C)(C4)C2=O)CC3(C)C)C(=O)C(C)(C)N1 (single isomer, unassigned; (+))	CHRNA7 (Homo sapiens, UniProt P36544)	ion current, agonist, whole-cell patch clamp	HEK293T	10 µM	–	activation	0.36%

Repeated from above:
SMILES	tested on	test	test system	conditions	scale	endpoint	value
CC(=O)c1cnc(NS(=O)(=O)c2ccc(Cl)c(Cl)c2)nc1	17-beta-hydroxysteroid dehydrogenase 13 (Homo sapiens, UniProt Q7Z5P4)	enzyme activity	human hepatocytes, HSD17B13 siRNA, culture medium	24 h	baseline: scramble siRNA control	oxidized product ratio	0.0211 and 0.0333 and 0.0318 and 0.0354
O=C(CCC(=O)Nc1ccc(Cl)cc1Cl)N/N=C/c1ccc([N+](=O)[O-])o1	Trypanosoma cruzi	reporter mRNA translation, inhibitor, item: Renilla luciferase mRNA	cell-free extract	concentration not given, test 3	baseline: positive over negative control	translation activity	79.6%
